Assay results gathered from unrelated publications.
Every numbered part comes from another study and shows a few of its results, in no order.

Series 1
Target: Interferon regulatory factor 3, full length, phosphomimetic (IRF3, Homo sapiens, UniProt Q14653, residues 1-427, S386D/S396D/S398D/S402D/T404D/S405D)
Chain of UniProt Q14653 (whole entry, unmodified, looked up): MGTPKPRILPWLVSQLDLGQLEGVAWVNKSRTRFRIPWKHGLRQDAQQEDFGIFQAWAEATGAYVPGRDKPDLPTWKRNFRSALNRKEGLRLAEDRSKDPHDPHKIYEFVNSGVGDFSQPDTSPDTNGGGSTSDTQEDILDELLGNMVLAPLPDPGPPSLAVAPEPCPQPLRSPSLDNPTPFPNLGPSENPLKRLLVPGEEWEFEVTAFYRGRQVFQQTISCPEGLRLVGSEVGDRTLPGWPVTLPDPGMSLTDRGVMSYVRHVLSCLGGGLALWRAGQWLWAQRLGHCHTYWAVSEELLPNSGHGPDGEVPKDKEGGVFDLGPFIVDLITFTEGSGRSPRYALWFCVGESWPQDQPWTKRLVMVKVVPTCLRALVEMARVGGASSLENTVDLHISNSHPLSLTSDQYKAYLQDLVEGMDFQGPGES
Technique: protein-binding microarray
Form: double-stranded DNA, one strand shown
Matrix: in vitro
Concentration: 2540 nM top
Setting: 60-bp whole probe
With: salmon DNA 0.4 mg/ml
Baseline: random background probes
Direction: higher = stronger binding
Endpoint: fitted relative affinity
Shared flanks, not repeated: GCCTAGCAC … GTCTTGATTCGCTTGACGCTGCTG
CACTTTGGATAACCAAAAACGTGCTAG: 1.11 z-score
ATCATTTTCGTTTTTATTATGTGCTAG: 6.15 z-score
TTAGGACTGGGTTATCGGTTAGTGCTA: -0.539 z-score
TCAATTTTCTGAATGCCACTGTGCTAG: 1.35 z-score
GACGGTCTGGACACTGGGGACGTGCTA: -0.538 z-score
TTTAAATTCTAATTAGAATTGTGCTAG: 0.843 z-score
GAAATTTTTTTTCTAACTAAGTGCTAG: 0.986 z-score
GACGAGTTCGGGTTTCGAGACGTGCTA: 0.861 z-score

Series 2
Target: TAR DNA-binding protein 43, full length, His tag (TARDBP, Homo sapiens, UniProt Q13148, residues 1-414)
Technique: RNA Bind-n-Seq
Form: RNA
Matrix: in vitro
Concentration: 20 nM
Setting: 6-mer, flanks averaged, single round
With: 150 mM LiCl
Baseline: input library
Direction: higher = stronger binding
Endpoint: 6-mer enrichment (R)
AAGCCA: 0.841
GUCAGC: 0.891
AGAGGC: 0.983
CCAAAA: 0.848

Series 3
Target: RING finger protein unkempt homolog, zinc fingers 1-6, GST-SBP tag (UNK, Homo sapiens, UniProt Q9C0B0, residues 30-357)
Chain of UniProt Q9C0B0 (30-357, looked up): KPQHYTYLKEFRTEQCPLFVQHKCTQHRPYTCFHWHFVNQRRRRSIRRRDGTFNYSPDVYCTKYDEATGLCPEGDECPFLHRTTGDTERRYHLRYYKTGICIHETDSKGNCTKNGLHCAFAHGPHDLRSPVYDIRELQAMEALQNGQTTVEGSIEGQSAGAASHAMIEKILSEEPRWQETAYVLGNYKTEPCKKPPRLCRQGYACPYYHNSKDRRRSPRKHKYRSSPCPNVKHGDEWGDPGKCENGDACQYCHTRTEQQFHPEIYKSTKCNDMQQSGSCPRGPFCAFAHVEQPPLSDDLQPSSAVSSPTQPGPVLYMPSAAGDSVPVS
Technique: RNA Bind-n-Seq
Form: RNA
Matrix: in vitro
Concentration: not given
Setting: RNA with constant flanks, human-mouse chimeric sites, ends assumed
Baseline: input RNA pool
Direction: higher = stronger binding
Endpoint: bound/input enrichment
GGGAGUUCUACAGUCCGACGAUCCAGCGCCGAGGCCGCGGUUUCCCCCUGGGCCUCCCCAGCAGCAGCCAUGGGCAUCAAGUUUUUAGAAGUUAUCAAACCUUUCUGUGCAGUUCUACCAGAAAUUCAGAAACCGGAAAGGAACAACAGAGGAUUGAGCAUCA: 1.43 ratio
GGGAGUUCUACAGUCCGACGAUCGAUAAGAAAAGCUUGUUGGAGACCCGCUUGCACAUCACUGGUAGAGACCUGAGGUGUCAAAUAGCUGAAACUUUCGGACUUCAAGAAAAUUACAUCAAGAUCGUAAUAAAUAAGAAACAGCAACAGAGGAUUGAGCAUCA: 0.274 ratio
GGGAGUUCUACAGUCCGACGAUCAACUUCGUGCAUCGGUUUCCCUUUGUAGCUGUUUCAAUUGGCUUUGCUGUGAAUAAAGAGAUGGAGUUUGGAAUUGUGUACAGCUGUGUGGAAGAUAAGAUGUACACUGCCAGAAAAGGGCAACAGAGGAUUGAGCAUCA: 0.46 ratio

Single results of other studies
PhoQ, residues 284 288 289 292 302 303 SLANKL — fold induction (PhoP, residues 12 14 15 18 19 LYHSL (Escherichia coli, UniProt P23836); Sort-seq, refers to: YFP reporter; E. coli; PhoQ-PhoP variant library, with: 10 µM Mg2+; baseline: high Mg2+ state, higher = stronger signaling): 5.01

Repeated from above (series 3):
GGGAGUUCUACAGUCCGACGAUCAACUUCGUGCAUCGGUUUCCCUUUGUAGCUGUUUCAAUUGGCUUUGCUGUGAAUAAAGAGAUGGAGUUUGGAAUUGUGUACAGCUGUGUGGAAGAUAAGAUGUACACUGCCAGAAAAGGGCAACAGAGGAUUGAGCAUCA: 0.46 ratio
